Results collected from several papers.
Compare with care: the assays were run in different laboratories. “And” joins repeats or separate records; there may be more than shown.
CHEK1: Serine/threonine-protein kinase Chk1 (CHEK1, Homo sapiens, UniProt O14757)
UniProt O14757, sequence (whole entry, looked up): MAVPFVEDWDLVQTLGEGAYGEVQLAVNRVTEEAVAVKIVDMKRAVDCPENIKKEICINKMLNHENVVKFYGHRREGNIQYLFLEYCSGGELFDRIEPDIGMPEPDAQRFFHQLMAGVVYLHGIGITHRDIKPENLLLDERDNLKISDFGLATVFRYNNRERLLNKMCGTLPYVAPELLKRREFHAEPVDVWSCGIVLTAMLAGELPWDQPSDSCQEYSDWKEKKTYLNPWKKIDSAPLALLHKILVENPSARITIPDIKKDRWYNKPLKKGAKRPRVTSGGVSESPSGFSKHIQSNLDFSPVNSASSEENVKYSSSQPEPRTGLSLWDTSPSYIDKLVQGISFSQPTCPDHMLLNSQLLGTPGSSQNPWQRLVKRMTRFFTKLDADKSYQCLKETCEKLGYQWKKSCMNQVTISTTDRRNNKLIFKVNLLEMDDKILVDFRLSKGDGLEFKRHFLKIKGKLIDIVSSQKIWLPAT
CA9: Carbonic anhydrase 9 (CA9, Homo sapiens, UniProt Q16790)
DYRK1A: Dual specificity tyrosine-phosphorylation-regulated kinase 1A (DYRK1A, Homo sapiens, UniProt Q13627)
PIK3CD: Phosphatidylinositol 4,5-bisphosphate 3-kinase catalytic subunit delta isoform (PIK3CD, Homo sapiens, UniProt O00329)
UniProt O00329, sequence (whole entry, looked up): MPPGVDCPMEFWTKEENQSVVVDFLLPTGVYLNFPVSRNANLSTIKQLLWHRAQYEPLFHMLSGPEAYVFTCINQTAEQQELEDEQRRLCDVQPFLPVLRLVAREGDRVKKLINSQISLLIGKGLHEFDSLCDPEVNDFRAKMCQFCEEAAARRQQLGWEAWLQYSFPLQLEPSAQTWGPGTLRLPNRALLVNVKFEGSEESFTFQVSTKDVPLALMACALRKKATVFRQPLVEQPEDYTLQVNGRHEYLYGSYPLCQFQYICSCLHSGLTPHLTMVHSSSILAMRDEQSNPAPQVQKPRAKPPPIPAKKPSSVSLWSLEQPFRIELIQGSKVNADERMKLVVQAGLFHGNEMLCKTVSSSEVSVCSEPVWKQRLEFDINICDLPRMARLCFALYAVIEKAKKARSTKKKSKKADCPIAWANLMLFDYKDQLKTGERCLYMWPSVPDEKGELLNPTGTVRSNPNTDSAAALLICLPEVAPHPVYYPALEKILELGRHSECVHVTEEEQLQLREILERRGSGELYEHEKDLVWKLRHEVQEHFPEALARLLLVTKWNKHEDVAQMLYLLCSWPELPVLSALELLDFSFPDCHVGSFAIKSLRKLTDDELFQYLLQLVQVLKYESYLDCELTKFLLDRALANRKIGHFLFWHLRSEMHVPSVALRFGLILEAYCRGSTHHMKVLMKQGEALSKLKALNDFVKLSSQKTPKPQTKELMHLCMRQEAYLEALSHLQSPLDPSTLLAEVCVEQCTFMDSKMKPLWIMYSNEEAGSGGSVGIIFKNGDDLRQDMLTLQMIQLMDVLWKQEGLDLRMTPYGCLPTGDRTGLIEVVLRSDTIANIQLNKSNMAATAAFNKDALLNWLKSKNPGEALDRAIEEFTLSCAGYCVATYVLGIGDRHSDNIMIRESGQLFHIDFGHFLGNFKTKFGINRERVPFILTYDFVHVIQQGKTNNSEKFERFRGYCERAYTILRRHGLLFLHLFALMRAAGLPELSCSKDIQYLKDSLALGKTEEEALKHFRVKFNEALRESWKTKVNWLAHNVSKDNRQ
AMY2: Pancreatic alpha-amylase (AMY2, Sus scrofa, UniProt P00690)
PIK3CA: Phosphatidylinositol 4,5-bisphosphate 3-kinase catalytic subunit alpha isoform (PIK3CA, Homo sapiens, UniProt P42336)
UniProt P42336, sequence (whole entry, looked up): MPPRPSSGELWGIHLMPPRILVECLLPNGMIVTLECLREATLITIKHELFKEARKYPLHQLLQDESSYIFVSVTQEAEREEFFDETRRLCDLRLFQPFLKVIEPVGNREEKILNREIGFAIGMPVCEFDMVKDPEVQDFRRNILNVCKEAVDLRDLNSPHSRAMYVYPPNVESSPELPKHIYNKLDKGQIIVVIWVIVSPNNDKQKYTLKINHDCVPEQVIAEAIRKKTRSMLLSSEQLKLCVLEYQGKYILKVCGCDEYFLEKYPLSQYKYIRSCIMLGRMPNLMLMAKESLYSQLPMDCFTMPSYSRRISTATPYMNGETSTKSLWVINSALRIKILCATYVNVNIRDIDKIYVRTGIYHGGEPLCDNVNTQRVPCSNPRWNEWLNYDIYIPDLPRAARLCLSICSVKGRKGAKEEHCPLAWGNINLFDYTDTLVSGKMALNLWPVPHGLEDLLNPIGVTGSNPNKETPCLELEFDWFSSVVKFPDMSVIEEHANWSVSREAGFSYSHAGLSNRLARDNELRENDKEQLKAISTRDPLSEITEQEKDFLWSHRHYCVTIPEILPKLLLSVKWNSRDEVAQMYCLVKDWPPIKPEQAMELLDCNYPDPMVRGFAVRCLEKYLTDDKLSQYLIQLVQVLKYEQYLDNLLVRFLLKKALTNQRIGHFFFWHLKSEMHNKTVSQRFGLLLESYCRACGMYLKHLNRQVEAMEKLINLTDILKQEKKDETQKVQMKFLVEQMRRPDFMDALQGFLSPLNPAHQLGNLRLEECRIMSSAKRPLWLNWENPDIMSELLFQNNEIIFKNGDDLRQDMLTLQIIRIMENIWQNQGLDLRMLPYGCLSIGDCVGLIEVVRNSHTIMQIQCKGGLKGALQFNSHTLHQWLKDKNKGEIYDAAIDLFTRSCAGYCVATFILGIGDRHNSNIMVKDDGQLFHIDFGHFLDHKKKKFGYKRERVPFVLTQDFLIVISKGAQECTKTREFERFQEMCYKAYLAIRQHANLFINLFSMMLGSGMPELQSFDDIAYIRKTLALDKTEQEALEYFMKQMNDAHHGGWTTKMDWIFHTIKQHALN
rep main protease: Replicase polyprotein 1ab, main protease (rep, Porcine epidemic diarrhea virus, UniProt P0C6Y4)
FLT3 ITD: Receptor-type tyrosine-protein kinase FLT3 (FLT3, Homo sapiens, UniProt P36888, ITD)
UniProt P27338, sequence (whole entry, looked up): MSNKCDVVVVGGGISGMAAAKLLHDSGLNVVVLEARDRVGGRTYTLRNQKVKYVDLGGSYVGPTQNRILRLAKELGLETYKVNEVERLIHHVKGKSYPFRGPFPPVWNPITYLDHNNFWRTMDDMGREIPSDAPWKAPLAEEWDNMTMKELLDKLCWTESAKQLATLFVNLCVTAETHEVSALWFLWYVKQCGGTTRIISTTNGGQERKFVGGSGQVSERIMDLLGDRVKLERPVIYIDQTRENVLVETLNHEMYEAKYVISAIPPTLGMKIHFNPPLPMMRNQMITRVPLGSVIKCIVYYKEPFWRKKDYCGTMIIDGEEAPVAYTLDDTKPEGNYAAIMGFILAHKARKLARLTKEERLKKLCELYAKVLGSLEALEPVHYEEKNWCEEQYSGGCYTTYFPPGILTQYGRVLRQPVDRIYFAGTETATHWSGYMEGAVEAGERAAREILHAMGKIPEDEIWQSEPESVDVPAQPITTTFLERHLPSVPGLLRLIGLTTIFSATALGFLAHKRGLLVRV
UniProt P04746, sequence (whole entry, looked up): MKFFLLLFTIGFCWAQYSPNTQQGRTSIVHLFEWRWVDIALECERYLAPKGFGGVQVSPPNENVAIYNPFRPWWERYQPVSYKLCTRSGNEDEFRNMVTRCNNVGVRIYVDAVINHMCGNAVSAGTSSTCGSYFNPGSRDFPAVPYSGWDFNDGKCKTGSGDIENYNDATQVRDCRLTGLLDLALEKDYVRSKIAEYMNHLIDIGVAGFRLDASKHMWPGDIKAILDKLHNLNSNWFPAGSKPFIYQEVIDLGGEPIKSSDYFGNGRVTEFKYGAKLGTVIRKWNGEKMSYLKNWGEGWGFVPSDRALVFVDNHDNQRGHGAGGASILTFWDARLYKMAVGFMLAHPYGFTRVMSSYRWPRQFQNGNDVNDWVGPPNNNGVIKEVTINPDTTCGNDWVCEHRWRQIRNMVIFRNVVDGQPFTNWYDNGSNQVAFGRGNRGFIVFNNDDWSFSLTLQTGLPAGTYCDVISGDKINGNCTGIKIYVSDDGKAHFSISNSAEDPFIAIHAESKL
UniProt P07550, sequence (whole entry, looked up): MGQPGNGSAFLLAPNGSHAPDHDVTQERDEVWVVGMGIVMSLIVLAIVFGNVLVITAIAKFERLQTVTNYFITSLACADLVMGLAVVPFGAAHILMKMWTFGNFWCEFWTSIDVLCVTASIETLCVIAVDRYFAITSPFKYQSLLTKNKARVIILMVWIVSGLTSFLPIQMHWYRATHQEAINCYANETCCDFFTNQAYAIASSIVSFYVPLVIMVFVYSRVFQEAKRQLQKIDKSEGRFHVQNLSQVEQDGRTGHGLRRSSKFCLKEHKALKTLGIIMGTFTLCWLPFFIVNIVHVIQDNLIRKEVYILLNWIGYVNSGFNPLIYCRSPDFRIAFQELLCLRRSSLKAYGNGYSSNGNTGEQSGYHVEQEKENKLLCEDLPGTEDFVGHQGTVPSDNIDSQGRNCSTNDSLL

SMILES	target	assay	setting	IC50
Nc1cccc(-c2ccc3c(c2)Nc2ccc(CC(=O)O)cc2NC3=O)c1	CHEK1	enzyme activity, inhibitor	–	> 10 µM
CC(c1ccc(S(N)(=O)=O)cc1)N(C)C(=O)c1ccc(-n2cc(-c3ccc(Cl)cc3)cn2)cc1 (stereo not shown)	CA9	enzyme activity, inhibitor	–	0.062 µM
CC(C)C[C@@H]1CN(c2nccc(-c3cnn4ncccc34)n2)CCN1	DYRK1A	cell-free assay, TR-FRET	–	0.309 µM
CN(C)C(=O)c1cc2cnc(Nc3cncc(-c4cccc5c(=O)cc(N6CCOCC6)oc45)c3)nc2n1C1CCCC1	PIK3CD	enzyme activity, inhibitor, radiometric	–	1.96 µM
CCCC(=O)NCCCN1CCc2c([nH]c3ccc(Cl)cc23)C1	SLC6A3 (Homo sapiens, UniProt Q01959, W84C)	transporter uptake, inhibitor	–	9.11 µM
FC(F)(F)c1ccccc1/C=N/N=C/c1ccccc1C(F)(F)F	AMY2	enzyme activity, inhibitor	–	164 µM
N#Cc1cnc(NC(=O)Nc2cnc3ccccc3n2)cn1	CHEK1	enzyme activity, inhibitor	–	> 10 µM
COc1ccc(-c2cc(=O)c3cccc(Nc4ncc5cc(C(=O)N(C)C)n(C6CCCC6)c5n4)c3o2)cc1	Cyclin-dependent kinase 4, with cyclin D1 (CDK4, Homo sapiens, UniProt P11802)	enzyme activity, inhibitor, radiometric	–	> 10 µM
CC[C@@](O)(c1cnc(C(F)(F)F)c(Cl)c1)c1c2cnn(C3CC3)c(=O)c2nn1C	Dihydroorotate dehydrogenase (quinone), mitochondrial (Rattus norvegicus, UniProt Q63707)	enzyme activity, inhibitor, absorbance	–	> 30 µM
NS(=O)(=O)c1cc(NC(=O)Cc2ccc(NC(=O)c3ccc(Br)o3)cc2)ccc1F	CA9	enzyme activity, inhibitor	–	0.18 µM
CC(C)c1cccc(C(C)C)c1N=C1C(=O)N(Cc2cccc(Cl)c2)c2ccccc21	PIK3CA	enzyme activity, inhibitor, ADP detection	–	0.0396 µM
COc1ccc(C(=O)NCc2cc(Br)c(OC)c(OC)c2)cc1	Replicase polyprotein 1ab, papain-like protease (rep, Porcine epidemic diarrhea virus, UniProt P0C6Y4)	enzyme activity, inhibitor, FRET	–	4.49 µM
CN1CCN(C(=O)[C@H](CCCN[C@@H]2C[C@H]2c2ccc(F)cc2)NC(=O)c2ccc(-n3ccnn3)cc2)CC1	MAOB (Homo sapiens, UniProt P27338)	enzyme activity, inhibitor	with preincubation	> 25 µM and 34.3 µM
O=C1C(=Nc2ccc(Cl)cc2)c2ccccc2N1Cc1cccc(Cl)c1	PIK3CD	enzyme activity, inhibitor, ADP detection	–	0.0588 µM
COc1cc(/C=N/NC(=S)NN=Cc2ccc([N+](=O)[O-])o2)ccc1Oc1ccnc2cc(Cl)ccc12	Pancreatic alpha-amylase (Homo sapiens, UniProt P04746)	enzyme activity, inhibitor, absorbance	–	14.2 µM and 40.1 µM
O=C(NCc1cc(O)c(O)c(Br)c1)c1ccno1	rep main protease	enzyme activity, inhibitor, FRET	–	2.31 µM
COCCCNCC(O)COc1cccc2[nH]c(C)cc12 (stereo not shown)	ADRB2 (Homo sapiens, UniProt P07550)	calcium signal, antagonist, fluorescence	–	0.0017 µM
CN1CCN(c2ccc(Nc3ncc4cc(C#N)c(=O)n(C5CCCC5)c4n3)cc2)CC1	MAP3K20 (Homo sapiens, UniProt Q9NYL2)	enzyme activity, inhibitor	–	0.0184 µM
Cc1nc(Nc2ccc3c(c2)/C(=C/c2ccccc2C)C(=O)N3C)c2ccccc2n1	PIK3CA	enzyme activity, inhibitor, ADP detection	–	0.0353 µM
NS(=O)(=O)c1cccc(NC(=O)C2Cc3ccccc3CN2C(=O)c2ccco2)c1 (stereo not shown)	CA9	enzyme activity, inhibitor	–	1.78 µM
Cc1ccccc1C(=O)NCc1cc(O)c(O)c(Br)c1	rep main protease	enzyme activity, inhibitor, FRET	–	9.35 µM
Cc1cn(-c2ccccc2)nc1C1(CNC(=O)c2ccc(F)c(F)c2-c2ccc(C(F)(F)F)cc2)NC(=O)NC1=O (single isomer, unassigned)	A disintegrin and metalloproteinase with thrombospondin motifs 7 (Homo sapiens, UniProt Q9UKP4)	enzyme activity, inhibitor, FRET	–	0.00745 µM
O=C1NC2=C(Nc3ccccc31)N(O)CC(Cl)=C2	CHEK1	enzyme activity, inhibitor	–	> 10 µM
O=C(NCc1cc(O)c(O)c(Br)c1)c1ccc(Cl)c(F)c1	rep main protease	enzyme activity, inhibitor, FRET	–	1.83 µM
COc1ccc(Nc2n[nH]c3c2Cc2ccccc2-3)cc1	CHEK1	enzyme activity, inhibitor	–	> 10 µM
CC(C)c1cccc(C(C)C)c1N=C1C(=O)N(Cc2ccc(Br)cc2)c2ccccc21	PIK3CD	enzyme activity, inhibitor, ADP detection	–	0.315 µM

SMILES	target	assay	setting	IC50
Nc1ccc(/C=N/N=C/c2ccc(N)cc2)cc1	AMY2	enzyme activity, inhibitor	–	266 µM
CN(C)CCN(C)C(=O)c1ccc(-c2nc3ccc4[nH]ncc4c3c3c2CC(F)(F)CC3)cc1	FLT3 ITD	enzyme activity, inhibitor	–	> 1 µM
Cc1ccc(CN2C(=O)C(=Nc3cccc(C)c3)c3ccccc32)cc1	PIK3CA	enzyme activity, inhibitor, ADP detection	–	0.0179 µM
N#Cc1cnc(NC(=O)Nc2cc(Cl)ccc2OC2CCC(O)C2)cn1 (stereo not shown)	CHEK1	enzyme activity, inhibitor	–	0.00667 µM
Cc1ccc2[nH]c(=O)c(CNC3CCCCC3)cc2c1	ADRA1B (Homo sapiens, UniProt P35368, V197I)	calcium signal, antagonist	–	13.2 µM
O=C1Nc2ccccc2/C1=N/c1ccccc1Br	PIK3CA	enzyme activity, inhibitor, ADP detection	–	0.584 µM
O=C(NCCCN1CCCCC1)c1ccc(-c2nc3ccc4[nH]ncc4c3c3c2CCCC3)cc1	FLT3 ITD	enzyme activity, inhibitor	–	> 1 µM
Cc1nc(Nc2ccc3c(c2)/C(=C/c2ccccc2)C(=O)N3C)c2ccccc2n1	PIK3CD	enzyme activity, inhibitor, ADP detection	–	0.193 µM
Cc1cccc(N=C2C(=O)N(Cc3ccc(Br)cc3)c3ccccc32)c1	PIK3CA	enzyme activity, inhibitor, ADP detection	–	0.019 µM
Cc1cc(C)n(C(C)C(=O)Nc2ccc(NC(=O)Cc3ccc(S(N)(=O)=O)cc3)cc2Cl)n1 (stereo not shown)	CA9	enzyme activity, inhibitor	–	0.118 µM
N#Cc1cnc(NC(=O)Nc2cc(O)[nH]n2)cn1	CHEK1	enzyme activity, inhibitor	–	> 10 µM
O=C1Nc2ccccc2/C1=N\c1ccc(Cl)cc1	PIK3CA	enzyme activity, inhibitor, ADP detection	–	0.367 µM
c1cnn2ncc(-c3ccnc(N4CCNCC4)n3)c2c1	DYRK1A	cell-free assay, TR-FRET	–	0.589 µM
CC1=NOC(CNC(=O)c2cnc3c(c(C)nn3C)c2Cl)C1 (stereo not shown)	60 kDa heat shock protein, mitochondrial (Homo sapiens, UniProt P10809)	ATPase activity, inhibitor	–	> 250 µM
Cc1cc(C(=O)CN2CCN(C(=O)c3ccc(-c4cn(C)nn4)c(F)c3)CC2)c(C)n1-c1ccc(S(N)(=O)=O)cc1	CA9	enzyme activity, inhibitor	–	0.0347 µM
COc1cc2c(cc1O)-c1n[nH]c(-c3ccc(-c4ccc(O)cc4)cc3)c1C2	CHEK1	enzyme activity, inhibitor	–	0.00541 µM
Clc1ccc(C2(c3ccc(-c4cn[nH]c4)cc3)CCNCC2)cc1	LATS1 (Homo sapiens, UniProt O95835)	enzyme activity, inhibitor, radiometric	–	0.107 µM
NS(=O)(=O)c1ccc(NC(=O)C2CCCc3sc(NC(=O)c4ccc(Cl)cc4)nc32)cc1 (stereo not shown)	CA9	enzyme activity, inhibitor	–	0.168 µM
COc1ccc(-c2oc3cc(Nc4ncc5cc(C(=O)N(C)C)n(C6CCCC6)c5n4)ccc3c(=O)c2F)cc1	PIK3CD	enzyme activity, inhibitor, radiometric	–	> 10 µM
O=C1Nc2ccccc2C1=Nc1cccc(Cl)c1	PIK3CG (Homo sapiens, UniProt P48736)	enzyme activity, inhibitor, ADP detection	–	0.0968 µM
CC(C)(C)c1ccc(NC(=O)Nc2cnc(C#N)cn2)cc1	CHEK1	enzyme activity, inhibitor	–	> 10 µM
O=C(CSc1nc2ccccc2cc1C=Nn1c(S)nnc1-c1ccccc1)NCCc1ccccc1	PPO3 (Agaricus bisporus, UniProt C7FF04)	enzyme activity, inhibitor	–	9.77 µM
CC(C)(C)C(=O)COC(=O)C=Cc1ccc(Nc2cccc(S(N)(=O)=O)c2)cc1	CA9	enzyme activity, inhibitor	–	0.15 µM
COc1cc2ncnc(N(C)c3ccc4c(c3)/C(=C/c3ccccc3)C(=O)N4C)c2cc1OC (mixture of isomers)	PIK3CA	enzyme activity, inhibitor, ADP detection	–	0.304 µM
COCCCNC(=O)c1ccc(-c2nc3ccc4[nH]ncc4c3c3c2CCCC3)cc1	FLT3 ITD	enzyme activity, inhibitor	–	> 1 µM
CN(C(=O)c1ccc(Cl)c(S(N)(=O)=O)c1)C(CNC(=O)OC(C)(C)C)C1CC1 (stereo not shown)	CA9	enzyme activity, inhibitor	–	0.068 µM

Repeated from above:
SMILES	target	assay	setting	IC50
CN1CCN(c2ccc(Nc3ncc4cc(C#N)c(=O)n(C5CCCC5)c4n3)cc2)CC1	MAP3K20 (Homo sapiens, UniProt Q9NYL2)	enzyme activity, inhibitor	–	0.0184 µM
Cc1nc(Nc2ccc3c(c2)/C(=C/c2ccccc2C)C(=O)N3C)c2ccccc2n1	PIK3CA	enzyme activity, inhibitor, ADP detection	–	0.0353 µM
NS(=O)(=O)c1cccc(NC(=O)C2Cc3ccccc3CN2C(=O)c2ccco2)c1 (stereo not shown)	CA9	enzyme activity, inhibitor	–	1.78 µM
Cc1ccccc1C(=O)NCc1cc(O)c(O)c(Br)c1	rep main protease	enzyme activity, inhibitor, FRET	–	9.35 µM
Cc1cn(-c2ccccc2)nc1C1(CNC(=O)c2ccc(F)c(F)c2-c2ccc(C(F)(F)F)cc2)NC(=O)NC1=O (single isomer, unassigned)	A disintegrin and metalloproteinase with thrombospondin motifs 7 (Homo sapiens, UniProt Q9UKP4)	enzyme activity, inhibitor, FRET	–	0.00745 µM
